{"data": "Measured values pooled from the literature", "note": "A part holds a random share of what one study measured. Changes are numbered by the printed parent chain."}
{"data": "Sample 1", "target": "RING finger protein unkempt homolog, zinc fingers 1-6, SBP tag (UNK, Homo sapiens, UniProt Q9C0B0, residues 30-357)", "technique": "RNA Bind-n-Seq", "form": "RNA", "matrix": "in vitro", "tested at": "100 nM", "setting": "RNA with constant flanks, vertebrate orthologous sites, ends assumed", "relative to": "input RNA pool", "reading": "higher = stronger binding", "sequence of UniProt Q9C0B0 (30-357, looked up)": "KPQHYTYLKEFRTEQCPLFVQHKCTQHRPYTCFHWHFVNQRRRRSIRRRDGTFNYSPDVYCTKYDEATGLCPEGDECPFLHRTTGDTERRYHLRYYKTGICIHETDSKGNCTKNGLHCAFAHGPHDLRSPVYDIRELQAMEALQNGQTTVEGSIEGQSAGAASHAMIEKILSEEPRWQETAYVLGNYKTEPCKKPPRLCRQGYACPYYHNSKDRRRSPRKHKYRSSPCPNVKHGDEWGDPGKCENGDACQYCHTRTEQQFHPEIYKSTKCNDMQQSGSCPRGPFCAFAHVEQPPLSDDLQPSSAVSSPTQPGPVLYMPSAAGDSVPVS"}
{"Strand": "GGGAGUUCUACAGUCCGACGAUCGUUUUUGUCAUUUUUCACAUUUCCUGUAAAUAAUGGAUAAUCAUCAUUUAUUUUCUUGUAGAAUGUAUUUUUAAAAAUGUGGGUAGACCAUAAAUGUACUUGCUGACUUCAUUCAUUAUUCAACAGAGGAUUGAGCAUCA", "bound/input enrichment [ratio]": 0.836}
{"Strand": "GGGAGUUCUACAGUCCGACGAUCCGGCUAACUCCCUGAUUGGCCGGGCUGCCCACAUCGCUGUGCUCGAUUCUGAGAUCUUCCUGGAGAAGUUCUUCCUUGUUGCAGGCCUCAGGUUCUUUCAGUAGAACAGCAGCAUAAAUACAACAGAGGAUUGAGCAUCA", "bound/input enrichment [ratio]": 0.258}
{"Strand": "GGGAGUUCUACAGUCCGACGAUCUUGGUUUGGGGUAGAGGGGAGGGAAGGGCAGGAUGGUAUGGAAUCUCUAGGGUAUAUGGGUAGUUAGGGUACACAGUUAGUUCUAAGUGGGCCUUUAUGUUAAAAAUUUUUUGGGAGGUGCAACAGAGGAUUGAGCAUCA", "bound/input enrichment [ratio]": 1.37}
{"Strand": "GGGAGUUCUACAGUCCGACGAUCGAAUUGAACAAAAGCGUUUCCACUGGGUUUUGCCUGUAAGAAAAAAAGUACCCGAGCACAUAGAGCUUUUUAAUAGUGCUAACCAAUGCCUUUUUAGAUGUAUUUUUGAUGUAUAUAUCUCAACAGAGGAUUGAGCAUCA", "bound/input enrichment [ratio]": 1.06}
{"Strand": "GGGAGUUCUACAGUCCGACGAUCAAACCCCGAUUUUAGAUGUGAUAUUUAGGCUUUCAUUCCAGUUUGUUUUGUUUUUUUGUUUAGAUACCAAUCUUUUAAAUUCUUGCAUUUUAGUAAGAAAGCUAUCUUUUUAUGGAUGUUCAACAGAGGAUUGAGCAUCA", "bound/input enrichment [ratio]": 1.07}
{"Strand": "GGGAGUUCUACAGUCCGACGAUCUUCAUUAUCUGUCCAAGGUUGAGGUCACAGAGUUCGAGGACAUCAAGUCUGGAUACAGAAUAGAUUUUUCUCAGGUUGAUUCUCUUAGUUUGUUCUGAAGCUGAUGAUGAUGAUUUCUGACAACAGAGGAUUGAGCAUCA", "bound/input enrichment [ratio]": 0.261}
{"Strand": "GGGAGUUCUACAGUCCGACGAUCAUUUGAAAUGUAGUUAGUUAUAUUUAAUUAUCUCAUUCCUGAGUUCCUUUUUCAUUAAAGUAGCUUUCAUUUCUUUUAUUGCAGUUAUUAAAAUAUGAAUAAAUAGAAGGUUUGUGCCCGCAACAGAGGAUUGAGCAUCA", "bound/input enrichment [ratio]": 0.574}
{"Strand": "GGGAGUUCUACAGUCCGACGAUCGAGCGCUGCCAGUGCGUAUCCACAACACUGAGUGCAAAGUAGUAAUUCCACACCCACAGUAAGGUAGUUUCAGGGCAGUGUUGCUGUGGUUCUCUCUUGGGCAGGUUCUGAAAAUGUACACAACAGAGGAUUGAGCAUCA", "bound/input enrichment [ratio]": 1.05}
{"data": "Sample 2", "target": "RNA binding protein fox-1 homolog 2, RRM domain, GST-SBP tag (RBFOX2, Homo sapiens, UniProt O43251-10, residues 100-194)", "technique": "RNA Bind-n-Seq", "form": "RNA", "matrix": "in vitro", "tested at": "365 nM", "setting": "natural RNA segment, single round, ends assumed", "relative to": "no-protein control", "reading": "higher = stronger binding", "Residues (chain)": "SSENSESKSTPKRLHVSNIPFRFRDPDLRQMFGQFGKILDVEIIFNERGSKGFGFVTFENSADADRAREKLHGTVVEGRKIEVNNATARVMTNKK"}
{"Strand": "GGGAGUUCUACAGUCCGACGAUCCAGUGGAUCCAUGACUUACGUGUCACAGAAGAAUGACUGUUGCCGAAGGAAGCUUAAAAAUUCUAUAUCCAGAUAAAAGACCACAAUAAAGCAAAAGUCACCUAUACCGUUGGAAUUCUCGGGUGCCAA", "RBNS enrichment (R)": 0.27}
{"Strand": "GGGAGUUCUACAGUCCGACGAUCAAGAAGAAAAUGGAAGAAAAAGGGAAAAAAGCUAACCGGAUAACCAAUUUGUUAUAAGUUGGUUUUCAACAAAGAAAUUUAGCAGCCAAGUAAGGUUUCAAGGGAAUAUUUGGAAUUCUCGGGUGCCAA", "RBNS enrichment (R)": 1.04}
{"Strand": "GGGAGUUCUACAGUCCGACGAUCUUUGGGAAAAAGUACCAGCAAUGAUGUCGAUGUUAAUAAUACUUCAUAAUUGAUAUCUUAUAGCUUUCAAGUAAAGUGUUUUCUAUAACUCAGAUAAUUAAUUUGAAGCAUGGAAUUCUCGGGUGCCAA", "RBNS enrichment (R)": 0.325}
{"Strand": "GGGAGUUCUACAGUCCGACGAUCAAAUUUGUAACUUUAUAAACAUGUUUUAUGCUUGAGGAAAUUUUUAAGGUGGUAGUAUAAAUGGAAACUUUUUGAAGUAGACCAGAUAUGGGCUACUUGUGACUAGACUUUGGAAUUCUCGGGUGCCAA", "RBNS enrichment (R)": 1.09}
{"Strand": "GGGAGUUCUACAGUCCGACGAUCAUAUAGAAAGAAAGACAAUAAGAACACGAGAAACGCCCCCCCCCACCCCCCGGCAUCCUGGAGAGCAUGAGCUGUUUCCAAAAUCGGAUUCUCAGCUGUCACUGUUUCUUUGGAAUUCUCGGGUGCCAA", "RBNS enrichment (R)": 0.877}
{"Strand": "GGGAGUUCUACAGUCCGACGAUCUGUGAGGGAACAUGCCCUGCCUUAGAGGGCUGCCACUGAAGCUGGGCCUCAUAUGUUCCAUGAGGAGCUAGGCCUCGUGGAAUGGCUGGCUGACUAAACCCAGAAAGCCAUGGAAUUCUCGGGUGCCAA", "RBNS enrichment (R)": 0.306}
{"Strand": "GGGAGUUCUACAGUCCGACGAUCCUGUUUAUGCUCUCCCUGCCCCCAGGGAAACUGUUUAUUCUUUCAAAAGAAGCAAACAGCGUUCAUUUCUGCUCCUGUAAUGGAGAAACAGCCAGCUCCCCUGCAUCCCUUGGAAUUCUCGGGUGCCAA", "RBNS enrichment (R)": 0.989}
{"Strand": "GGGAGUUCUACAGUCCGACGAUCUCAUGGCUGAACCUCUGAGACUGAGCCUUGGGGAGCACAGCUCUACUCUGGUUACACGGAUCACCUUUGUUGUGCUAGAAUGGAAGCUACAUUUCUGGAAUGUGUGUACCUGGAAUUCUCGGGUGCCAA", "RBNS enrichment (R)": 0.684}
{"data": "Other studies, line by line", "P1": "PafA, mature enzyme, eGFP fusion (Elizabethkingia meningoseptica, UniProt Q9KJX5); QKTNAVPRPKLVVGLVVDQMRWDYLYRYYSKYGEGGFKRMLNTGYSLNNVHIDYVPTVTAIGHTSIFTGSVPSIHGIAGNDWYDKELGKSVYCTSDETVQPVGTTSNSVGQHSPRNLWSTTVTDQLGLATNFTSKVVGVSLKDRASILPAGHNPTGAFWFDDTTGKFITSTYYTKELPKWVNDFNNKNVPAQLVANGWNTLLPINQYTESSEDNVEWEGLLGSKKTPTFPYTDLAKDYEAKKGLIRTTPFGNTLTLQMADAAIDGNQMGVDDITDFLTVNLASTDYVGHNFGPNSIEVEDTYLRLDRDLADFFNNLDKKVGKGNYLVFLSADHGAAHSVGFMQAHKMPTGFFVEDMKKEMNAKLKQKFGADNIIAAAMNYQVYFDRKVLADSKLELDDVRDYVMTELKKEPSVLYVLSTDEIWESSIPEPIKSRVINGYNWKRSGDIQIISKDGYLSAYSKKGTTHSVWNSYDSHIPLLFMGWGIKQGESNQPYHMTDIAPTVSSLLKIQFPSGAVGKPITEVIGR", "P2": "viral docking peptide; TSVRRALFTGGSD; partner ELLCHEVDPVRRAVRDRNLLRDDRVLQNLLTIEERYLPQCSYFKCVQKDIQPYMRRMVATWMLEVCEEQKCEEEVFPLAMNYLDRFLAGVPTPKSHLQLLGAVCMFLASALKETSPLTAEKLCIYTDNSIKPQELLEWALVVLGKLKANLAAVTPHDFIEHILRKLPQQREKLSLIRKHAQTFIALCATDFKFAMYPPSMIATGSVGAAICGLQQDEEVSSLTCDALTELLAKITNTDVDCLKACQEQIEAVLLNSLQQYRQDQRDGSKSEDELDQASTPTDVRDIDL"}
{"Variant": "P1 G76A", "target": "tungstate, free oxyanion", "test": "microfluidic competitive inhibition", "system": "in vitro, cell-free expressed", "conditions": "not given, derived from inhibition constants, unchanged parent 2230 nM", "scale": "lower = stronger binding", "endpoint": "oxyanion analog dissociation constant", "result": "2.08 µM"}
{"Variant": "P2 R4A", "target": "CCND2, cyclin fold, Cln2 fusion (human)", "test": "yeast growth competition, sequencing", "system": "yeast", "conditions": "weak parent motif", "scale": "relative to: not given, higher = stronger binding", "endpoint": "normalised enrichment score", "result": 0.06}
{"Variant": "P1 S433G", "target": "tungstate, free oxyanion", "test": "microfluidic competitive inhibition", "system": "in vitro, cell-free expressed", "conditions": "not given, derived from inhibition constants, unchanged parent 2230 nM", "scale": "lower = stronger binding", "endpoint": "oxyanion analog dissociation constant", "result": "1.73 µM"}
